Assay results gathered from unrelated publications.
A part holds a random share of what one study measured. Positions count from the first letter of the parent shown.

Block 1 — method: RNA Bind-n-Seq; molecule type: RNA; matrix: in vitro; concentration: not given; relative to: input RNA pool; direction: higher = stronger binding
Target: RING finger protein unkempt homolog, zinc fingers 1-6, GST-SBP tag (UNK, Homo sapiens, UniProt Q9C0B0, residues 30-357)
Setting: RNA with constant flanks, human and mouse sites, ends assumed
Residues (chain): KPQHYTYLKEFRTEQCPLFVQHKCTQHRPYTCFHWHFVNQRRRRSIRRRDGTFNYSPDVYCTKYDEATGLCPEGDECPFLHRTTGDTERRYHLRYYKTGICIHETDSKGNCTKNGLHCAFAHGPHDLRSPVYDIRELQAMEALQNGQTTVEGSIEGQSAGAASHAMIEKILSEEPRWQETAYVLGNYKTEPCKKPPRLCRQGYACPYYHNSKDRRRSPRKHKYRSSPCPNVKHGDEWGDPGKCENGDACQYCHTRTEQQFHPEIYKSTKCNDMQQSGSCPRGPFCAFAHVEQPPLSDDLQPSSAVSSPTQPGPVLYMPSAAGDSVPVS
| Sequence | bound/input enrichment [ratio] |
| --- | --- |
| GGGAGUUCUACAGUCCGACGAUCUUUGCAAAUUAUAUUGCCAGAGACACACGUCGCCUUGGCGCAACAAUACUAGACCGUAUACAUAGUCUUCAAAUUAAUAGCAGUUUGAGCACCUACUCUCUCGUAGACUCUGUUGGAAAUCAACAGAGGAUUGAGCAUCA | 6.26 |
| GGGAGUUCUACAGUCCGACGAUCUUGGCCCAAGGACUUGGUACAGGAAGGGAGAAGGGCAGGUGGGCAGGGAGCAGACAGGGUCUGGCUUUGCCCAGAGGGCACGGGCUUUCCCACCUCUCAAAGAGACAAGGAAGCCACCUGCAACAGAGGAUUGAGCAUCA | 0.145 |
| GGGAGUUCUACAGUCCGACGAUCCAGGCCCUGGGCCUGCUCCUUGCCACCAACCGAACCGUGAAUGUAGGGCCCCCAGCCUCACCUCUGCCCCAGGACCAACAACACCCUGGUUUGGAGCUGGGAGGAAGAAGGGGGCCUGAGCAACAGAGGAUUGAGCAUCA | 0.132 |
| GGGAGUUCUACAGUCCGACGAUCCCCAGGAAGAAAGUGAAUCCUGAAACCCGGCAGAAAGGCCAGAUUGAGGGAGAAGUGGACCUCAUUGGGAUGGUGAGGCUGACAGAAACCAGGCAGCCUUUUGUCCCUGAGAACAAUCCACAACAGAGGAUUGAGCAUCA | 0.0865 |
| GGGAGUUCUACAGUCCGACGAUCAGAAUGGAAGAUUUCACCUUCAAUGACUUGUGUAUUAAACUGGGUUUUCCUUACUUAUACUGUCAUCAGGGAGACUGUGAACAUGUCAUUGUCAUUACUGACAUAAGGCUUGUGCAUCAUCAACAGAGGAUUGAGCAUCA | 0.19 |
| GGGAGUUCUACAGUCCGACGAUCCGGGCAGUGGACGAGCUGCACAAACUGCUCAAAGAAGCAGGAGAAGCCAACAAAACAAUACAAGAUCAUCUUCUACAAGUGGAAGAAUCUAAAGAUCAGAUGGAAAAAGAAAUGCUUGAGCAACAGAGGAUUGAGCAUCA | 0.175 |
| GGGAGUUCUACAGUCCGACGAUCGUGUUGCUGGACCUUCAGAGUUAUGAUGGUGAUGCGCAAGGCAAAGAAGAGAUCGACAGUAUUUUGAACAAAGUAGAGGAAAGAAUGAAAGAAUUGAGUCAGGACAGUACUGGGCGGGUGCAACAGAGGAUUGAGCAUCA | 1.69 |
| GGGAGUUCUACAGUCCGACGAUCUUUUGAGAAGCUGAUGGAACAUUUCAGGAAUGAAGAUAAUAACAUAGAUUUUAUGGUGGCCUCUAUGCAGUUUAUUAACAUUGUAGUCCAUUCAGUAGAAGACAUGAACUUCAGAGUUCACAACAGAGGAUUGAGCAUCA | 0.538 |

Block 2 — target: CCNA1, cyclin fold, Cln2 fusion (human); method: yeast growth competition, sequencing; matrix: yeast; setting: weak parent motif; relative to: not given; direction: higher = stronger binding
Starting sequence: E2F1 docking peptide (human); PPVKRRLDLETDH
| Change | normalised enrichment score |
| --- | --- |
| QPVKRRLDLETDH [P1Q] | 0.469 |
| PPVKRRLPLETDH [D8P] | 0.238 |
| PPVKNRLDLETDH [R5N] | 0.366 |
| PPDKRRLDLETDH [V3D] | 0.189 |
| PPVKRRLDLETDG [H13G] | 0.47 |
| PPVKRRLDLECDH [T11C] | 0.386 |
| PPVKRRLNLETDH [D8N] | 0.762 |
| PPVKRRVDLETDH [L7V] | 0.231 |
| PPVKRRLDLETEH [D12E] | 0.557 |
| GPVKRRLDLETDH [P1G] | 0.47 |
| PPVKRRWDLETDH [L7W] | 0.339 |
| PPVKRRIDLETDH [L7I] | 0.454 |
| PPLKRRLDLETDH [V3L] | -0.0175 |
| PPVKRRLDLETQH [D12Q] | 1.21 |
| PPVKWRLDLETDH [R5W] | 0.211 |
| PPVKRRLDLETDR [H13R] | 0.22 |
| PPVKRRLDLEFDH [T11F] | 0.807 |
| PPVKRRLDLEYDH [T11Y] | 0.827 |
| PHVKRRLDLETDH [P2H] | 0.531 |
| PPVYRRLDLETDH [K4Y] | 0.582 |
| PPVKRRLDLEKDH [T11K] | 0.372 |
| PPVKRRLDLETDV [H13V] | 0.664 |
| PPFKRRLDLETDH [V3F] | 0.44 |
| PPVKYRLDLETDH [R5Y] | 0.108 |
| PPVKRRLDLETCH [D12C] | 0.53 |

Block 3 — method: protein-binding microarray; molecule type: double-stranded DNA, one strand shown; matrix: in vitro; concentration: 2200 nM top; setting: 60-bp whole probe; added: salmon DNA 0.4 mg/ml; relative to: random background probes; direction: higher = stronger binding; shared flanks, not repeated: GCCTAGCAC … GTCTTGATTCGCTTGACGCTGCTG
Target: Interferon regulatory factor 7, full length, phosphomimetic (IRF7, Homo sapiens, UniProt Q92985, residues 1-503, S471D/S472D/S475D/S476D/S477D/S483D/S484D/S487D)
UniProt Q92985, sequence (whole entry, unmodified, looked up): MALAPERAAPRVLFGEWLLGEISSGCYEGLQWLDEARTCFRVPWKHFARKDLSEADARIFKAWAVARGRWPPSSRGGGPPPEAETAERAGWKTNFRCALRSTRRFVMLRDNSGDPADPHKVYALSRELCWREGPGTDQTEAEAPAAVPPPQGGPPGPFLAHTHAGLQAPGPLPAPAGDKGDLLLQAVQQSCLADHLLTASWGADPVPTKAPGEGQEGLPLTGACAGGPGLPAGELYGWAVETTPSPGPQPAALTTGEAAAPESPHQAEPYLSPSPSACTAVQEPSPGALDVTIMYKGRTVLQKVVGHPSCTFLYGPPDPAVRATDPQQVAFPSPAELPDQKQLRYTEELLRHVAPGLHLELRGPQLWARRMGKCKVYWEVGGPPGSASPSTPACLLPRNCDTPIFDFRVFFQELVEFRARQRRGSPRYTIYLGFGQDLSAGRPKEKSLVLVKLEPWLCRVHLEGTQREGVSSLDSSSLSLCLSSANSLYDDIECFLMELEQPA
| Sequence | fitted relative affinity |
| --- | --- |
| TTAGGTTTCGACTTTAGGTTAGTGCTA | 5.01 z-score |
| GACGATATCAGTCTCGGGACGTGCTAG | 0.191 z-score |
| CCCGATATGCGGTAAGGGCGCGTGCTA | -0.371 z-score |
| GACGGTATCGGTATCGGAACGTGCTAG | 0.6 z-score |
| TTAGGTATCGACTATCCGTTAGTGCTA | 0.546 z-score |
| TTAGGTATCCTAATGCTTTAGTGCTAG | 0.236 z-score |
| TCATCTTTCATTGCTGCACTGTGCTAG | 1.88 z-score |
| TTCATTATTGTCTTCCCCATGTGCTAG | 1.86 z-score |
| TTATATATCAGTTTCGATTAGTGCTAG | 6.46 z-score |
| AACGGTCTCCTTCTCCTGACGTGCTAG | 0.938 z-score |
| GACGGACAGGACACTGGGGACGTGCTA | -1.16 z-score |
| CCCAGGGTCTGTTTGGGTCTGTGCTAG | -1.19 z-score |
| GACGGTCTCGGTATCGGGTCGTGCTAG | 0.651 z-score |
| TCATTTTTTTAATTGAAACTGTGCTAG | 0.704 z-score |
| TCAGGTTTTTTTTTAATACTGTGCTAG | 0.41 z-score |
| TTAGATATCAGACTGGATTAGTGCTAG | -0.396 z-score |
| TTAGGTTTAGGTTCCGGTTAGTGCTAG | 1.54 z-score |

Block 4 — method: protein binding microarray; molecule type: double-stranded DNA, one strand shown; matrix: in vitro; concentration: not given; relative to: not given; direction: higher = stronger binding
Target: Histone acetyltransferase KAT6A, winged helix 2, GST fusion (KAT6A, Homo sapiens, UniProt Q92794, residues 85-181)
Setting: 8-mer, flanks averaged, mean of 2 arrays, mostly near background
Construct (chain): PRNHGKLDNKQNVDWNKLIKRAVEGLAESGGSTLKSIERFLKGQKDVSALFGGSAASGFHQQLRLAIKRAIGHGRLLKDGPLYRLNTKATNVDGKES
| Sequence | E-score |
| --- | --- |
| AGGTTATG | -0.116 |
| CACTAGCC | 0.103 |
| GATTTCGC | 0.305 |
| GACATTGC | -0.0433 |
| ATAGTACA | -0.0803 |
| GTTTTTTA | 0.062 |
| CCTTCAAC | -0.058 |
| AAGGTAGC | 0.0215 |
| TAACGCCA | -0.0423 |
| GGCTGATA | 0.0564 |
| CTCACTAA | 0.0101 |
| CCCTCCCG | 0.243 |
| GCTAGGAA | 0.0183 |
| CATAAGGA | -0.257 |
| TATTAGGA | -0.103 |
| CAGCCTGA | 0.0807 |
| CCCGTTTC | 0.021 |
| CCTCAGAA | -0.0118 |
| AACCGCTT | -0.00217 |
| ATCATCAT | -0.0763 |
| GCTCTTCC | 0.127 |
| CCAACTGC | 0.0538 |
| ACTACCTA | -0.255 |
| CACTCCTC | -0.00938 |
| ACGAGGCC | -0.061 |

Mixed results
| Molecule | target | assay | test system | setting | scale | measurement | value |
| --- | --- | --- | --- | --- | --- | --- | --- |
| PhoQ, residues 284 288 289 292 302 303 SCEHLI | PhoP, residues 12 14 15 18 19 SEGLL (Escherichia coli, UniProt P23836) | Sort-seq, item: YFP reporter | E. coli | PhoQ-PhoP variant library, added: 10 µM Mg2+ | relative to: high Mg2+ state, higher = stronger signaling | fold induction | 13.4 |

For quick reference, copied from above (block 3):
| Sequence | fitted relative affinity |
| --- | --- |
| TTAGGTATCGACTATCCGTTAGTGCTA | 0.546 z-score |
| TTAGGTATCCTAATGCTTTAGTGCTAG | 0.236 z-score |
| TCATCTTTCATTGCTGCACTGTGCTAG | 1.88 z-score |
| TTCATTATTGTCTTCCCCATGTGCTAG | 1.86 z-score |
| TTATATATCAGTTTCGATTAGTGCTAG | 6.46 z-score |
| AACGGTCTCCTTCTCCTGACGTGCTAG | 0.938 z-score |
| GACGGACAGGACACTGGGGACGTGCTA | -1.16 z-score |
| CCCAGGGTCTGTTTGGGTCTGTGCTAG | -1.19 z-score |
